Results collected from several papers.
Numbered parts are unrelated; each lists some results of a single study. Changes are numbered by the printed parent chain.

Series 1
Target: CCND3, cyclin fold, Cln2 fusion (human)
Method: yeast growth competition, sequencing
Medium: yeast
Notes: weak parent motif
Reference: not given
Direction: higher = stronger binding
Starting sequence: BRCA2 docking peptide (human); PSIKRNLLNEFDR
| Variant | normalised enrichment score |
| --- | --- |
| I3V | 0.00262 |
| I3D | -0.0605 |
| R13K | 0.0466 |
| P1R | 0.21 |
| L7I | 0.281 |
| N6E | 0.129 |
| N9C | 0.063 |
| S2H | 0.0439 |
| S2E | 0.0643 |
| N6V | 0.0797 |
| N6I | 0.106 |
| E10D | 0.206 |
| E10V | 0.11 |
| S2N | 0.0761 |
| P1M | -0.0255 |
| D12G | 0.2 |
| E10G | 0.0653 |
| D12Q | 0.143 |
| F11D | 0.155 |
| F11T | 0.091 |
| N9R | 0.234 |
| P1H | 0.152 |
| S2M | 0.136 |
| L8M | 0.187 |
| N6P | 0.198 |

Series 2
Target: Interferon regulatory factor 7, full length, phosphomimetic (IRF7, Homo sapiens, UniProt Q92985, residues 1-503, S101K/S471D/S472D/S475D/S476D/S477D/S483D/S484D/S487D)
Method: protein-binding microarray
Molecule type: double-stranded DNA, one strand shown
Medium: in vitro
Concentration: 250 nM
Notes: 60-bp whole probe
Together with: salmon DNA 0.4 mg/ml
Reference: random background probes
Direction: higher = stronger binding
Shared flanks, not repeated: GCCTAGCAC … GTCTTGATTCGCTTGACGCTGCTG
Construct (chain): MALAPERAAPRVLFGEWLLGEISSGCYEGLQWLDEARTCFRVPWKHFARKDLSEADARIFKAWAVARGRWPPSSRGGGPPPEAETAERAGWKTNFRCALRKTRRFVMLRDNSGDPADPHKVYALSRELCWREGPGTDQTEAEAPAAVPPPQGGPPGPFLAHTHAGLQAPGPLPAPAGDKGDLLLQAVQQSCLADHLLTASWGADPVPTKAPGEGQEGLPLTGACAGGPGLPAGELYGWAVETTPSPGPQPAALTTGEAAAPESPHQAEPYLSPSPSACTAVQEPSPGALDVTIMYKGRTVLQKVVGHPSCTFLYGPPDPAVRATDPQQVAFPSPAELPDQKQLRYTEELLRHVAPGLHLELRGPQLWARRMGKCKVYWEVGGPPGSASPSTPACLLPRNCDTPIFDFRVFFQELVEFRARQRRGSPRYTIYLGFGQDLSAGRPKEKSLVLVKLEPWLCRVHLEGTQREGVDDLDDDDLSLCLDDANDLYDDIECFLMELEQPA
| Sequence | log fluorescence |
| --- | --- |
| TCTACTTCTCTTTTTGCTTTGTGCTAG | 1.75 z-score |
| GTCGGACTGGGGTATCGGGACGTGCTA | -0.283 z-score |
| GACGGTCTCCTGCTCCTGACGTGCTAG | -0.338 z-score |
| TCAGTAATGCTTCTGTAACTGTGCTAG | -0.204 z-score |
| CCTTGTGTTACTTTCTACTTGTGCTAG | 0.441 z-score |
| TCATATGTATATATGTGACTGTGCTAG | 0.132 z-score |
| GACGATCTCTGACTGGAGACGTGCTAG | -0.332 z-score |
| TTAGGGCTGGGGTTTCGGTTAGTGCTA | 4.24 z-score |
| TCTCTTTTATTTTTTTTATTGTGCTAG | 1.23 z-score |
| TTAGGTTTCGGTTCCGGATAGTGCTAG | 12.5 z-score |
| TTAGATATCTGACTGGATTAGTGCTAG | 0.00751 z-score |
| TTAGACTTCAGACTGGATTAGTGCTAG | -0.163 z-score |
| GACGGTATCGGGTTTGGGGACGTGCTA | 1.02 z-score |
| TAAGATTTCGGGTTTCGATTAGTGCTA | 8.39 z-score |
| TTAGGTTGCGGTCTCGGTTAGTGCTAG | 1.08 z-score |
| GACGGTATCCTAATCCTGACGTGCTAG | 0.23 z-score |
| GTAAAATTATTCTGTATATTGTGCTAG | 0.142 z-score |
| GACGCTATCGGGTATCGAGACGTGCTA | -0.332 z-score |
| GGCGGTTTCGACACTGGGGACGTGCTA | 3.21 z-score |
| TCATTTTTCTCACCACATACTGTGCTA | 1.15 z-score |
| TTAGGACTGGCGACTGGGTTAGTGCTA | -0.476 z-score |
| TCATCTATGTCTGTTTTACTGTGCTAG | 0.432 z-score |
| GGCGGACTGGACTTTCGGGACGTGCTA | -0.463 z-score |
| GGGTCACTCAATCTCAACAGGTGCTAG | 0.592 z-score |
| TCAAATTAGTGTTTTGCACTGTGCTAG | -0.228 z-score |

Series 3
Target: RNA binding protein fox-1 homolog 2, RRM domain, GST-SBP tag (RBFOX2, Homo sapiens, UniProt O43251-10, residues 100-194)
Method: RNA Bind-n-Seq
Molecule type: RNA
Medium: in vitro
Concentration: 365 nM
Notes: natural RNA segment, single round, ends assumed
Reference: no-protein control
Direction: higher = stronger binding
Shared flanks, not repeated: GGGAGUUCUACAGUCCGACGAUC … UGGAAUUCUCGGGUGCCAA
Residues (chain): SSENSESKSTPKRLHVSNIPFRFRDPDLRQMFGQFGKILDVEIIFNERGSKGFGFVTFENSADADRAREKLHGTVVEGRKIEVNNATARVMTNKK
| Sequence | RBNS enrichment (R) |
| --- | --- |
| CGGUAAAAUGCUGUGACUGUUUACUUUCAAUUGCAUUGUGUGUUGCCUGUGACUGCUUUCAAACGCUAGAGGGGGCCUCUGAUUUAAAGAAAUAAAAAGGACUUUUCUAA | 8.44 |
| UUCUUUCUUGUGGUGGGGCUCAGACACCAGCAACAGCCUCUUGGGAUGCCCCAAGUUGUUUCCGGUUCUUUCUAGCUGUCCUUUUUAAAGUGUGUGCUCUUCCUUCCUUA | 0.341 |
| CAACAGAAACCUAUCCUCACUGCCCUCCCCAGUCUCUCUUAAAGUUGGAAUUUACCAGUUAAUUACUCAGCAGAAUGGUGAUCACUCCAGGUAGUUUGGGGCAAAAAUCC | 0.573 |
| GGCCACUUGAUGACCCCCAACCAAGUGGCUCCCACACCCUGUUUUACAAAAAAGAAAAGACCAGUCCAUGAGGGAGGUUUUUAAGGGUUUGUGGAAAAUGAAAAUUAGGA | 0.564 |
| AUUUGUACAAAUGCAGCAUCUUCAUUCUUUCUGAGAAGACAAGAUGGUUUUCUUUACAUGAACAAAUGAACAAAAGAGAUCCUAGAUCCAUAACGUAGCUAAGGCAUCUA | 0.255 |
| UAAGAUAAUUUCAGAAGUUCAGUCUAUUUUUUCAGCGGAUACUGCCGCCACCAAGAAUCCAAAACCUAUUUUUGACUUGGAGAGACUUGCUUUUGUUGGUUCCGCCCGUG | 0.403 |
| AGAUUCAUUCCACUUGAAGUGUCUCCUGGGAUCCCCACAGCUGCGUAUGGCUGGGAAAUGGACUUAAGGCUUGGGCUUGAAUUGGUGGCUCCUACCUGUGAGGUCCCAUC | 0.285 |
| GGCUGUUCCUCUAUCAGCGAAGACUGGAGACCAACAAACAUUACACAGCUAGCUCUAUAUUCUCUCUGUGGAGUCCCAACACAUGGAGCUCAACUACACAAUAUAAGGCA | 0.35 |
| AUAUUUUUCUGCAUACAAAUUUAUGAAGCUGGAGUCUACCAAACACAGCUUUAGUCACAAAAGUUAGUUUAGUUAUCUCAUUUCGCUUGGAGAUGGAAUUUCAGGAAGGG | 15.2 |
| GCAAUAAGAGGCUCUAAGCUGACUGAGUUGCAAGGACCCUUUCCGCCCUCCCUUGGAUCUCCAUGUUUUUCCAGAUGGCGGAAGAGCAUGUGCCACCCCCUUUCCUAACA | 0.804 |
| CUUUCCUCUUUUUGGAGAAAAGGAACAGGGCAGUGGAAUGAAAAUUUUUUGUUUGUUUGUUUUUAAGAAACAAGAAAACAGAACUGCCUUUGCACUAAAUUAGUGACUUG | 3.53 |
| AGCCCAGGGGCAAAGGCAGUCAACUUGCAUGUGAUACAAGACAGGCCAGGCAGAGCUGGUGUGACUUGAGGUGGCGCCAGCCUCUCAGGCAUGGUGGCUGGGUUGGUGAU | 24.9 |

Series 4
Target: Sal-like protein 4, full length isoform A (SALL4, Homo sapiens, UniProt Q9UJQ4, residues 1-1053)
Chain of UniProt Q9UJQ4 (whole entry, looked up): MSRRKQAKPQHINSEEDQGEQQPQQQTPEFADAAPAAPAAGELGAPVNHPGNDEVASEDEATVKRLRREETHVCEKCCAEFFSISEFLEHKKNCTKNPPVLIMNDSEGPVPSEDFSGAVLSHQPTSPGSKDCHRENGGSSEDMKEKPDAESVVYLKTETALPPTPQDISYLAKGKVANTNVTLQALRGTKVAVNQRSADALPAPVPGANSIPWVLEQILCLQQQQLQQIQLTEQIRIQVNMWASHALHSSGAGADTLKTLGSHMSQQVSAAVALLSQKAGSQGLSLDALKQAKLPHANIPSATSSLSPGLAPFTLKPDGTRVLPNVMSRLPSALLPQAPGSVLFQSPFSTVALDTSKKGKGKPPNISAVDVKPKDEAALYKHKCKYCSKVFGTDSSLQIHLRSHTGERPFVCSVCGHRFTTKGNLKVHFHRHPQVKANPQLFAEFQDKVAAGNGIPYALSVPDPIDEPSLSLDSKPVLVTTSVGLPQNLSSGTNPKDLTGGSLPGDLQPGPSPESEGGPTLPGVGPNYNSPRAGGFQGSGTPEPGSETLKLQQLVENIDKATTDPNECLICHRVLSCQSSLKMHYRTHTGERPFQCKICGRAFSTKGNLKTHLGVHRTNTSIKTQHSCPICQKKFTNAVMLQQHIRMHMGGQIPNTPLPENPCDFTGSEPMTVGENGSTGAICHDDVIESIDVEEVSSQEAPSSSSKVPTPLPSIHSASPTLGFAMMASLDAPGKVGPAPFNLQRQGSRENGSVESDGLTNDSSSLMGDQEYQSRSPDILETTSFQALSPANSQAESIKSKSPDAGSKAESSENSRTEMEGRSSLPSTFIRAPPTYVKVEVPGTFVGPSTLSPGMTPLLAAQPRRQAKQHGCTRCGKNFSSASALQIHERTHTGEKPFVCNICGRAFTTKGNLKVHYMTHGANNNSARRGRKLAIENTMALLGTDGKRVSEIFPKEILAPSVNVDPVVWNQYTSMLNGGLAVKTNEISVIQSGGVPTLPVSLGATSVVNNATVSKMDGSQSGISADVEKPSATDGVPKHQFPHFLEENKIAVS
Method: universal PBM
Molecule type: double-stranded DNA, one strand shown
Medium: in vitro
Concentration: 600 nM
Notes: 8-mer, flanks averaged, mean of replicates
Direction: higher = stronger binding
| Sequence | E-score |
| --- | --- |
| ATACCTAG | 0.126 |
| ACTCTCGG | -0.2 |
| CCATCCTA | -0.0173 |
| AATTCGAA | 0.207 |
| CTCGACAG | -0.137 |
| GATAGGCC | -0.255 |
| AGACCAGA | 0.0624 |
| AAAGTTAG | 0.132 |
| ACCTTGCT | -0.111 |
| GGAGATGA | -0.0466 |
| GCGGGGCA | -0.283 |
| GGTTGAAA | 0.0801 |
| GCCCGTAA | -0.174 |
| CGAACTAG | 0.0146 |
| AATACTTA | 0.3 |
| CGGTGCAC | -0.271 |
| ATTCCTCA | 0.194 |
| ATCGCCAT | 0.0584 |
| CTGAATTA | 0.269 |
| GTAGTTCA | 0.00498 |
| AACTGCAG | -0.0791 |

Series 5
Target: RING finger protein unkempt homolog, zinc fingers 1-6, GST-SBP tag (UNK, Homo sapiens, UniProt Q9C0B0, residues 30-357)
Chain of UniProt Q9C0B0 (30-357, looked up): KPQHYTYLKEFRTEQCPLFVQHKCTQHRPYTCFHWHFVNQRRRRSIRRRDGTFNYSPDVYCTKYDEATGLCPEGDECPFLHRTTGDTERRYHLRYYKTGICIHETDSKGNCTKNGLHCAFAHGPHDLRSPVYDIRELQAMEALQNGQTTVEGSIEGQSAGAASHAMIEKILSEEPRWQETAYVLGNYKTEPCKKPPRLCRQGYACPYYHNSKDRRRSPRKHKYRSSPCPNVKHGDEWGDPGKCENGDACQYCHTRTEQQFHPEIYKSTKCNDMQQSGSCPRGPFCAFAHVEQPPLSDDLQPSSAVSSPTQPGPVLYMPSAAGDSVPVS
Method: RNA Bind-n-Seq
Molecule type: RNA
Medium: in vitro
Concentration: not given
Notes: RNA with constant flanks, human and mouse sites, ends assumed
Reference: input RNA pool
Direction: higher = stronger binding
Shared flanks, not repeated: GGGAGUUCUACAGUCCGACGAUC … CAACAGAGGAUUGAGCAUCA
| Sequence | bound/input enrichment [ratio] |
| --- | --- |
| CCCUGUUUAUUGGCUGGAGGUUUAUUAACAUAUAAGUCUCCUGCUACCUCACCCAUUAGUAGUAAUUCUCACAGGUCACUGGAUGGUUUAAGCAGAACUCAGGGCGAAAGUAUAUCAGAA | 0.522 |
| AAAAUUCGACUAAAACCAGAAACUCCUCGAAGUGAAACUUGUAUUUCUAAUGACUUUUAUUCUCAUAUGCCUGUUGGAGAGACUAAUCCUUUGAUAGGCUCUUUACUCCAGGAGCGGCAA | 0.414 |
| AGUUGUUUCUCCCUAACUCCCAACUCCCAACUCCCAAACUGCCUGCAUAUUUACUCUUCGUCAGUGCUAUCUUCUUGUAUGUCAUUGUGAGCAAGCUGUGAUGAAUAAAGAAUUGGAGUU | 0.669 |
| GUCUCAGCUGCCUUAGACUAAAGGACUUUCAACACACUGGUCUCUUUUAAUUUAGUGAAAAGUGUGGGAGUUGUAAUUAGGAUCAUCCACCCCAGACAUGGAAUCCCCCCUCCCUGGUGG | 1.54 |
| UUUCCGUCUUUUGGAAGUGGAUUUUCUUCUUUUGAUACAGGAUUUACUUCAUUUGGGUCACUAGGUCACGGGGGCCUCACUUCAUUCUCUUCCACGUCAUUUGGUGGUAGUGGCAUGGGC | 0.443 |
| AAAAUGGAGAAUGGGUCCUUGAAGGCUCUUUUGGAGGCUGAUAAGCAAAAAGCCAUAGAGGCCAGCAGUACUGUGGGGCAGACAGCAGAGAACUUCGAGGUUCAGGAGAUGCUGAAAGUG | 0.184 |
| CUACUUUAGAGGAUUUCAGCCUUGAUGUUUUAAUAUCCUAGGCCUCUGCUGUAAUAAGAUUUUAGACAAAUGUUUGGAAUUUAAGAAGCAACUCAUGUUACUAAUUUGUAUAGCCCAUAU | 1.79 |
| AGGUGGCAGAGAGGCUGGGGAGUUGCCCAUCGCUGCAGCCAGCUGCACAGUCUCAGCCGCCUAGCACAGCAGAAUCCGGGGCCACUUCAGAAUGUGAAAGGAUGCACGGUUGUAUUCACA | 0.185 |
| UUGGGUGGUAUUGAUGGAGUUGGUGGAUUUUCCUCCAAGUGAUUAAAUGAAAUUUGACGUAUCUUUUCAUCCAAAGUUUUGUACAUCAUGUUUUCUAACGGAAAAAAAUGUUAAUAUGGC | 0.302 |
| CGCCGUCUUGGCUUGGCUGCUAAACUUAUGGAGUUACUAGAAGAAAUUUCAGAAAGAAAAGGUGGAUUUUUUGUUGAUCUCUUCGUAAGAGUAUCCAAUCAAGUUGCCGUCAACAUGUAC | 0.216 |
| UAAACCAUGUCCCCAGGAAAUUUGAAAGGAAGCAGGUGCUGAAUGGAAUUUUUUUCCUUUUCCAUGAGCUGUGUUAAUUCUAUCUCCAGUAGGCCUAAUGCUUGAAUAAGCAAGAUGUCU | 0.636 |
